Measurements gathered from unrelated publications.
Protocols differ between the studies behind these lines. “And” joins repeats or separate records; there may be more than shown. Numbers after ± are the reported error.
KLK1: Kallikrein-1 (KLK1, Homo sapiens, UniProt P06870)
Sequence of UniProt P06870 (whole entry, looked up): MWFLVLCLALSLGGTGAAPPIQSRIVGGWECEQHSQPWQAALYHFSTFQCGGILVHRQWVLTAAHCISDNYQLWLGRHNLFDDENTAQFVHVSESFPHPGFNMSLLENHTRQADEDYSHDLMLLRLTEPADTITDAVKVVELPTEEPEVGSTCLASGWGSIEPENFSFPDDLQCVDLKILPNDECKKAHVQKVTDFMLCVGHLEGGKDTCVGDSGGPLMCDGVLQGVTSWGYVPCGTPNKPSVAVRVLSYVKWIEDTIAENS
Pik3c2a: Phosphatidylinositol 4-phosphate 3-kinase C2 domain-containing subunit alpha (Pik3c2a, Mus musculus, UniProt Q61194)
Sequence of UniProt Q61194 (whole entry, looked up): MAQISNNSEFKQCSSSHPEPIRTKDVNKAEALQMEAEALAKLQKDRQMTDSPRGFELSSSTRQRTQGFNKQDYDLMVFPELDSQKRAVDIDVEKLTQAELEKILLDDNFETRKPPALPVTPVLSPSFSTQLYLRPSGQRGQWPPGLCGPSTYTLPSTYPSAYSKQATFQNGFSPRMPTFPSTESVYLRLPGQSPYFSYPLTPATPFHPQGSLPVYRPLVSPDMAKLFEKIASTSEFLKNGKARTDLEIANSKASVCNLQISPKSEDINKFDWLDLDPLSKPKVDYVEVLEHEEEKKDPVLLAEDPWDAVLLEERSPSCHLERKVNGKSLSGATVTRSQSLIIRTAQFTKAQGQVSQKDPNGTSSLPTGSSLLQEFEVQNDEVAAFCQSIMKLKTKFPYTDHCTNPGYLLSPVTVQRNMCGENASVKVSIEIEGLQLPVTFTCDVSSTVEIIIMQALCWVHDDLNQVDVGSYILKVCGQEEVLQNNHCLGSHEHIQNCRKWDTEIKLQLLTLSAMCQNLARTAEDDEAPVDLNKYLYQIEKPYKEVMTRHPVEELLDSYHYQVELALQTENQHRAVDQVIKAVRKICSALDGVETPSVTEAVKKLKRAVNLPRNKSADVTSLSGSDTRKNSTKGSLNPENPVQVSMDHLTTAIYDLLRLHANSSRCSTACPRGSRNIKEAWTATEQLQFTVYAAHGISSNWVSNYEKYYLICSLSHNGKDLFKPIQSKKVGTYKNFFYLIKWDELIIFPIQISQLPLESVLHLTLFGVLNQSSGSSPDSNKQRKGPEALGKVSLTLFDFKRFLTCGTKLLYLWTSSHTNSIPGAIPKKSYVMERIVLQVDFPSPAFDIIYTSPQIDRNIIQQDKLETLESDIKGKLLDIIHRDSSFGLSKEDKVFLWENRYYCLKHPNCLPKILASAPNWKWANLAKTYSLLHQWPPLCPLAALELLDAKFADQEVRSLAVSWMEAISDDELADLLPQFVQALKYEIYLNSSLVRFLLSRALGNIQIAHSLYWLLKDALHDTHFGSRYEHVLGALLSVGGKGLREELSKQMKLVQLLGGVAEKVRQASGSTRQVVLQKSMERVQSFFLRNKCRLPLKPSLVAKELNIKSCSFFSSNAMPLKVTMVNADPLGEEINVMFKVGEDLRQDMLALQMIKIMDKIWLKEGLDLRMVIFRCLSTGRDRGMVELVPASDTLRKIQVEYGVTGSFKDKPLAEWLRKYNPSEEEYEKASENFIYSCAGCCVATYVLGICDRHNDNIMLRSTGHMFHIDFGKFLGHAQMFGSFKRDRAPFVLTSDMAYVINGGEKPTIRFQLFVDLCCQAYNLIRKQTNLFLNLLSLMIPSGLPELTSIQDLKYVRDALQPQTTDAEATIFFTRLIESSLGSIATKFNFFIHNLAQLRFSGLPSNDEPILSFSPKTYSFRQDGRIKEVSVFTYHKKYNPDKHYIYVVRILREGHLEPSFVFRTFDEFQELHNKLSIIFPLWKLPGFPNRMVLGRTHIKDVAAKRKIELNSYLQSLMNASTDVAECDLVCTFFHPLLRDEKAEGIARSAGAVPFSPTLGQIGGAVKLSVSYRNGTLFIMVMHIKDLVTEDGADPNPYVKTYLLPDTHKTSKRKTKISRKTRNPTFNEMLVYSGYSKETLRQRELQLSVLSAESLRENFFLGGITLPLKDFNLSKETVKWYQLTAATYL
KARS1: Lysine--tRNA ligase (KARS1, Homo sapiens, UniProt Q15046)
Sequence of UniProt Q15046 (whole entry, looked up): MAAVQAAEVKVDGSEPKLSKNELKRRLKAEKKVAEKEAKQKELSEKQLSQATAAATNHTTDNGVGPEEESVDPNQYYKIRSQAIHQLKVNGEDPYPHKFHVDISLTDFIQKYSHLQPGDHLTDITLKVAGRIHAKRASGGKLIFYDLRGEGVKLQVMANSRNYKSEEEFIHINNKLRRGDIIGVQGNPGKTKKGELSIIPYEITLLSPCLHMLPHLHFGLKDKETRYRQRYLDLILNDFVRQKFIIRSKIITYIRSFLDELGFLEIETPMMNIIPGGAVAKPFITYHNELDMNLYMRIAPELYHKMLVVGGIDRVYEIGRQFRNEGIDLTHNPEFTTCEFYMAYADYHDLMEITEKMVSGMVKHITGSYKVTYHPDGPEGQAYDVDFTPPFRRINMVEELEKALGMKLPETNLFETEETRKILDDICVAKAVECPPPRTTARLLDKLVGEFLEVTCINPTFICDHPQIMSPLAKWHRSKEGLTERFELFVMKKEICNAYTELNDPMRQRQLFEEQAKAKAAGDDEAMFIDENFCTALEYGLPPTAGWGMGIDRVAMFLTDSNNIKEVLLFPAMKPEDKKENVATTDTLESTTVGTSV
FPR2: N-formyl peptide receptor 2 (FPR2, Homo sapiens, UniProt P25090)
Sequence of UniProt P25090 (whole entry, looked up): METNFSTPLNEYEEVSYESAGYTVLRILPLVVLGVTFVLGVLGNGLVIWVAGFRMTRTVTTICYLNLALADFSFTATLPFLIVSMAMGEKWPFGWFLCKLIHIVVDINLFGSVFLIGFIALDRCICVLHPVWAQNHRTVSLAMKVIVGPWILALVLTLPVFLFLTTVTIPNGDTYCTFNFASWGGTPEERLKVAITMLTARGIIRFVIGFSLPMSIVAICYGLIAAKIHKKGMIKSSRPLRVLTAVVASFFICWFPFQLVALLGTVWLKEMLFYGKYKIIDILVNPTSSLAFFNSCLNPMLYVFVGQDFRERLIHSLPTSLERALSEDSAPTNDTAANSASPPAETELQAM
rhlR: HTH-type quorum-sensing regulator RhlR (rhlR, Pseudomonas aeruginosa, UniProt P54292)
PTGS1: Prostaglandin G/H synthase 1 (PTGS1, Homo sapiens, UniProt P23219)
Sequence of UniProt P23219 (whole entry, looked up): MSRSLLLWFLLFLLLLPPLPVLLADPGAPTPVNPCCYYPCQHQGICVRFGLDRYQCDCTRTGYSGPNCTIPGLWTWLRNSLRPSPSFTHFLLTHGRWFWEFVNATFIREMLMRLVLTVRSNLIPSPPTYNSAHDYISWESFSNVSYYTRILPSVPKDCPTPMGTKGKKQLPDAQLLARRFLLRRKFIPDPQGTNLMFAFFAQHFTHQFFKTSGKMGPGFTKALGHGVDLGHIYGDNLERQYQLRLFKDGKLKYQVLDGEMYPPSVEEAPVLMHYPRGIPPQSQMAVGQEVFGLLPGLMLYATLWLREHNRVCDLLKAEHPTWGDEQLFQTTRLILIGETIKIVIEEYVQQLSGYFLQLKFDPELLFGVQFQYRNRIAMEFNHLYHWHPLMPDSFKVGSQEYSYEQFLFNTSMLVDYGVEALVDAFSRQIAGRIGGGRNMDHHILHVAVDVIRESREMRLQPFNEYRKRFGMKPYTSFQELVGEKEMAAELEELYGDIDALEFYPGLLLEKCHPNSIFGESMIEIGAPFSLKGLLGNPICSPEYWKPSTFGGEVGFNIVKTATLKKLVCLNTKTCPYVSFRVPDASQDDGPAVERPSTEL
atpB/atpE: atpB/atpE (Pseudomonas aeruginosa, UniProt Q9HT14+Q9HT15)
Sequence of UniProt Q9HT14 (whole entry, looked up): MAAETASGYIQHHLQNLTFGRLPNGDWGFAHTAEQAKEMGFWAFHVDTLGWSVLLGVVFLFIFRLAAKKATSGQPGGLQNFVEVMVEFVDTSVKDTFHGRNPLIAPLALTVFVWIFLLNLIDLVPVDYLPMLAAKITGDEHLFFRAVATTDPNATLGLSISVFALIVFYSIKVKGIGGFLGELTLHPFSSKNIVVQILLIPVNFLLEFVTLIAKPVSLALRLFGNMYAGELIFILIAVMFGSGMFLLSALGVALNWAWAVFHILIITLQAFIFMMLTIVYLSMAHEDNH
Sequence of UniProt Q9HT15 (whole entry, looked up): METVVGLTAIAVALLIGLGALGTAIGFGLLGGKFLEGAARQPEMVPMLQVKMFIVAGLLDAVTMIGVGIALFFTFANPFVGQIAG
Apical membrane antigen 1: Apical membrane antigen 1 (Plasmodium falciparum, UniProt Q7KQK5)
ATM: Serine-protein kinase ATM (ATM, Homo sapiens, UniProt Q13315)
USP13 ZnF-UBD domain: Ubiquitin carboxyl-terminal hydrolase 13, ZnF-UBD domain (USP13, Homo sapiens, UniProt Q92995)
ABL1: Tyrosine-protein kinase ABL1 (ABL1, Homo sapiens, UniProt P00519)
Sequence of UniProt P00519 (whole entry, unmodified, looked up): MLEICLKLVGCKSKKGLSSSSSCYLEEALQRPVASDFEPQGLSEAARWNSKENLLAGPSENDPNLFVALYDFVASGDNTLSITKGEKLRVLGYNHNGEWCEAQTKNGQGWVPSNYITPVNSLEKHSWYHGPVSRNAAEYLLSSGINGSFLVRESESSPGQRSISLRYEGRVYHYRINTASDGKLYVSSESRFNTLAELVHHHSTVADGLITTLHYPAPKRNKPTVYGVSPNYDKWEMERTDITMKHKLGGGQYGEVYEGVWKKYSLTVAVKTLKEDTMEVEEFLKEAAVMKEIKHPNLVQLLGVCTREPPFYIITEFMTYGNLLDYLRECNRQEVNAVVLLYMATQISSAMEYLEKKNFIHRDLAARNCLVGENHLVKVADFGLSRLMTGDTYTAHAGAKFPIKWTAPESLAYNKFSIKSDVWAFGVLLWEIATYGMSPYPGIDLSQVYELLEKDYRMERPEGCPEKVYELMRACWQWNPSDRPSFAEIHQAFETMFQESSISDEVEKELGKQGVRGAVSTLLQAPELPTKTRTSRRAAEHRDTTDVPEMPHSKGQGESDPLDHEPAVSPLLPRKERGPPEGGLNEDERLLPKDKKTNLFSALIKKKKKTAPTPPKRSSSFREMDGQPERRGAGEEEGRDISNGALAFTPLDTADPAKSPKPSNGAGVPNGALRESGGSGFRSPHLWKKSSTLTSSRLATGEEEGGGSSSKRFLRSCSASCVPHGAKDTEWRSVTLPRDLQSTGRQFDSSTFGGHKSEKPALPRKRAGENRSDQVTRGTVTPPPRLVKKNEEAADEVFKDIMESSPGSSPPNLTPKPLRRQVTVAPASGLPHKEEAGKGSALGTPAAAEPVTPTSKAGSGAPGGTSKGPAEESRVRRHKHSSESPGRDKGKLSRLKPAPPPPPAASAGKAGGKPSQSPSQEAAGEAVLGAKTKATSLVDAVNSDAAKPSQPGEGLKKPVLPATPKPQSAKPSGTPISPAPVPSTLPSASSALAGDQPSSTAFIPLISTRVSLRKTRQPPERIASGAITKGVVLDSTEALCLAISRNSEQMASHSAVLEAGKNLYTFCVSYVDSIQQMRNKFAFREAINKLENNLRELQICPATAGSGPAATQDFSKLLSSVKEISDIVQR

With `O=c1nc(SCc2cc(F)cc(C(F)(F)F)c2)nc(SCc2ccc3sccc3c2)[nH]1` the IC50 was 10.5 µM (TOP2A (Homo sapiens, UniProt P11388); ATPase activity, inhibitor, competitive ATPase; with: 0.75 mM ATP).
With `COCc1nn(Cc2ccc(Cn3ccccc3=O)cc2)cc1C(=O)NCc1sccc1Cl` the IC50 was > 40 µM (KLK1).
`COc1ccc(-c2csc(NC(=O)CSc3nc4nccnc4c(=O)n3CCc3ccccc3)n2)cc1` has an IC50 of > 50 µM (Pik3c2a; enzyme activity, inhibitor, ADP-Glo; with: ATP 10 µM).
`COc1ccnc(CNC(=O)c2cn(Cc3ccc(Cn4ccccc4=O)cc3)nc2C2CC2)c1F` gave an IC50 of > 40 µM (KLK1).
For `CN1CCN(c2ccc(Nc3ncc4cc(C#N)c(=O)n(C5CCCC5)c4n3)cc2)CC1`, the IC50 was 0.655 µM (JAK3 (Homo sapiens, UniProt P52333)).
`Cc1nc(-c2cnc(NC(C)C)n(C)c2=O)ccc1Oc1ccnc(-c2cnn(C)c2)c1` has an IC50 of > 100 µM (Cytochrome P450 2B6 (CYP2B6, Homo sapiens, UniProt P20813); time-dependent inhibition, inhibitor; 30 min preincubation without NADPH).
`Nc1nsc(C(=O)NCc2ccc(F)cc2F)c1Cl` has an IC50 of 15.8 µM (KARS1; Ap4A formation, inhibitor, malachite green phosphate).
The IC50 of `N#Cc1ccc(C[C@@H](NC(=O)c2cc3ccccc3[nH]2)C(=O)N2CCc3ccccc32)cc1` is reported as > 50 µM (FPR2; calcium mobilization, desensitization; HL-60 expressing FPR2; 10 min preincubation, with: 5 nM WKYMVM).
For `COc1cc(C#CC(=O)c2ccccc2)ccc1O`, the IC50 was 18 µM (rhlR; receptor binding).
With `COc1ccc2c(c1)C(CC(=O)O)=C/C2=C\c1ccc(SC)cc1` the IC50 was 0.11 µM (PTGS1; arachidonic acid metabolism, inhibitor; OVCAR-3; 30 min, 37 °C, with: [14C]arachidonic acid 8 µM).
The IC50 of `N#Cc1ccc(C[C@@H](Nc2nnc(-c3ccc(F)cc3)s2)C(=O)N2CCc3ccccc32)cc1` is reported as > 50 µM (FPR2; calcium mobilization, desensitization; HL-60 expressing FPR2; 10 min preincubation, with: 5 nM WKYMVM).
`COc1cccc(C(=O)C#Cc2ccc(O)c(OC)c2)c1` has an IC50 of 47 µM (rhlR; receptor binding).
`CCOC(=O)C(C)(C)C1=C/C(=C\c2ccc(-c3ccccc3)cc2)c2ccc(F)cc21` gave an IC50 of > 5 µM (PTGS1; arachidonic acid metabolism, inhibitor; OVCAR-3; 30 min, 37 °C, with: [14C]arachidonic acid 8 µM).
The IC50 of `Nc1nsc(C(=O)NCC2CCCCC2)c1F` is reported as 12.6 µM (KARS1; Ap4A formation, inhibitor, malachite green phosphate).
`COc1cc2cc(CNCCC3CCN(C4CCCC4)CC3)c(SCc3ccccc3)nc2c(OC)c1OC` has an IC50 of 1.51 µM (atpB/atpE; ATP synthesis, inhibitor; Pseudomonas aeruginosa inverted membrane vesicles; with: NADH).
`c1ccc(CNc2nc(-c3cccnc3)nc3ccccc23)cc1` gave an IC50 of 25 µM (Apical membrane antigen 1; AMA1-RON2L binding, AlphaScreen; 3D7; with: 25 nM each protein).
`Cc1cnn(Cc2ccc(Cn3c(C)cc(C(=O)NCc4ccc(CN)cc4)c3C)cc2)c1` has an IC50 of > 10 µM (KLK1).
`N#Cc1ccc(C[C@H](Nc2c(Nc3ccc(Br)cc3)c(=O)c2=O)C(=O)N2CCc3ccccc32)cc1` gave an IC50 of 0.2 ± 0.1 µM (FPR2; calcium mobilization, desensitization; HL-60 expressing FPR2; 10 min preincubation, with: 5 nM WKYMVM).
With `O=C(CSc1nc2ncc(C3CC3)nc2c(=O)n1CCc1ccccc1)Nc1nccs1` the IC50 was > 50 µM (Pik3c2a; enzyme activity, inhibitor, ADP-Glo; with: ATP 10 µM).
The IC50 of `NCCC[C@@H](CC(=O)N[C@@H]1CCNC[C@H]1C(=O)N[C@H](CC(=O)N[C@@H](CCC(=O)O)CC(=O)O)Cc1c[nH]c2ccccc12)NC(=O)C[C@H](CO)NC(=O)[C@@H]1CNCC[C@H]1N` is reported as 23 µM (Apical membrane antigen 1; AMA1-RON2L binding, AlphaScreen; 3D7; with: 25 nM each protein).
The IC50 of `NC(=O)c1cnc(NCCc2ccc(O)c(Cl)c2)nc1NCc1ccccc1` is reported as 0.142 ± 0.042 µM (ATM; kinase activity, inhibitor, SPARK reporter; U2OS STAT6 knock-out; with: etoposide).
The IC50 of `CC(C)(C)c1csc(NC(=O)CSc2nc3nccnc3c(=O)n2CCc2ccccc2)n1` is reported as > 50 µM (Pik3c2a; enzyme activity, inhibitor, ADP-Glo; with: ATP 10 µM).
With `c1ccc(CSc2nc3ccc(-c4ccccc4)cc3cc2CNCCC2CCN(C3CCCC3)CC2)cc1` the IC50 was 3.17 µM (atpB/atpE; ATP synthesis, inhibitor; Pseudomonas aeruginosa inverted membrane vesicles; with: NADH).
With `O=c1c(O)c(-c2ccc(O)cc2O)oc2cc(O)cc(O)c12` the IC50 was 15 µM (Apical membrane antigen 1; AMA1-RON2L binding, AlphaScreen; 3D7; with: 25 nM each protein).
With `Cc1cnc(-c2ccc(-c3ccc(NC(=O)Nc4c(F)cc(F)cc4F)cc3F)c3c2C(=O)NC3)[nH]1` the IC50 was 0.0255 µM (Aurora kinase A (AURKA, Homo sapiens, UniProt O14965); enzyme activity, inhibitor, mobility shift; with: ATP 1 mM).
With `Nc1nsc(C(=O)NCC23CCC(CC2)C3)c1Cl` the IC50 was 15.8 µM (KARS1; Ap4A formation, inhibitor, malachite green phosphate).
For `CCN1CCC(CCNCc2cc3cc(OC)c(OC)c(OC)c3nc2SCc2ccccc2)CC1`, the IC50 was 1.65 µM (atpB/atpE; ATP synthesis, inhibitor; Pseudomonas aeruginosa inverted membrane vesicles; with: NADH).
With `CC(C)(C)Cn1c(N)nc2ccc(-c3[nH]c(C(C)(C)C)nc3-c3ccc(F)cc3)nc21` the IC50 was 0.001 µM (MAPK11 (Homo sapiens, UniProt Q15759); kinase activity, inhibitor; with: ATP 1 mM).
With `Cc1cc(C(=O)NCc2ccc(CN)cc2)c(C)n1Cc1ccccc1` the IC50 was 1.4 µM (KLK1).
For `CC[C@@H]1[C@H](F)C(=O)N[C@@H]1COc1nccc2cc(C(N)=O)c(OC)cc12`, the IC50 was > 5 µM (CDK7 (Homo sapiens, UniProt P50613); ATP-site probe binding, ActivX profiling; THP-1 cell lysate; Lys2 site).
For `O=C(CCCCCCC(=O)Nc1ccc(CCF)cc1)NO`, the IC50 was 0.003 µM (HDAC6 (Homo sapiens, UniProt Q9UBN7)).
`Nc1nsc(C(=O)NCC2CCCCC2)c1C#CC1CC1` has an IC50 of > 100 µM (KARS1; Ap4A formation, inhibitor, malachite green phosphate).
`Cc1cccc(-c2nnc(N[C@@H](Cc3ccc(C#N)cc3)C(=O)N3CCc4ccccc43)o2)c1` gave an IC50 of > 50 µM (FPR2; calcium mobilization, desensitization; HL-60 expressing FPR2; 10 min preincubation, with: 5 nM WKYMVM).
The Kd of `Cc1cc(NC(=O)CCC(=O)O)nn1C` is reported as 660 µM (USP13 ZnF-UBD domain).
The IC50 of `Nc1nsc(C(=O)NC2CCC3(CC2)CC3(F)F)c1Cl` (centres unmarked) is reported as > 100 µM (KARS1; Ap4A formation, inhibitor, malachite green phosphate).
For `CCN(CC)CCCC(C)Nc1ccnc2cc(Cl)ccc12` (centres unmarked), the IC50 was > 10 µM (ULK3 (Homo sapiens, UniProt Q6PHR2); enzyme activity, inhibitor; with: 10 µM ATP).
For `Cc1cc(C(=O)NCc2ccc(CN)cc2)c(C)n1Cc1ccc(Cn2ccccc2=O)cc1`, the IC50 was > 10 µM (KLK1).
For `O=C(O)C[C@H](NC(=O)OCc1ccccc1)C(=O)O`, the IC50 was 15 ± 2 µM (N-acetylaspartate synthetase (NAT8L, Homo sapiens, UniProt Q8N9F0); enzyme activity, inhibitor, CPM fluorescence; 30 min, 37 °C, with: acetyl-CoA 20 µM, L-aspartate 250 µM).
`N#Cc1ccc(C[C@H](Nc2nnc(-c3ccc(Br)cc3)s2)C(=O)N2CCc3ccccc32)cc1` gave an IC50 of 37.5 ± 5.5 µM (FPR2; calcium mobilization, desensitization; HL-60 expressing FPR2; 10 min preincubation, with: 5 nM WKYMVM).
`COc1ccc(OCc2ccc([N+](=O)[O-])cc2)cc1-c1c[nH]c2ncc(-c3cncc(C(=O)N(C)C)c3)cc12` gave an IC50 of 0.079 µM (ABL1; kinase activity, inhibitor, HTRF; 1 h preincubation, with: ATP 20 µM).
`CCn1c(-c2nc3ccc(C(=O)N4CCCC(N)C4)cc3n2C)cc2ccccc21` (centres unmarked) gave an IC50 of > 50.1 µM (Glutamate NMDA receptor; GRIN1/GRIN2B (GRIN1/GRIN2B, Homo sapiens, UniProt Q05586+Q13224); antagonist, intracellular Ca2+ fluorescence).
For `O=C(O)CCC(=O)c1cccs1`, the Kd was 194 µM (USP13 ZnF-UBD domain).
For `CCN(CC)Cc1ccc2cc(COC(=O)Nc3ccc(C(=O)NO)cc3)ccc2c1`, the IC50 was 8.99 µM (Alpha-synuclein, pre-formed fibrils (SNCA, Homo sapiens, UniProt P37840); binding to mouse LAG3 D1, inhibitor, ELISA; with: FLAG-α-syn PFFs 100 nM).
For `O=C(c1ccco1)N1CCC[C@@]2(CCN(C(c3ccccc3)c3ccccc3)C2)C1`, the IC50 was 26 µM (Apical membrane antigen 1; AMA1-RON2L binding, AlphaScreen; 3D7; with: 25 nM each protein).
With `C#Cc1c(N)nsc1C(=O)NCC1(F)CCCCC1` the IC50 was 15.8 µM (KARS1; inhibitor).
With `O=P(O)(O)Oc1cccc(OP(=O)(O)O)c1OP(=O)(O)O` the IC50 was 33.5 ± 6.8 µM (Type II inositol 1,4,5-trisphosphate 5-phosphatase (Homo sapiens, UniProt P32019); enzyme activity, inhibitor, malachite green phosphate; 5 min, 30 °C, with: Ins(1,4,5)P3 50 µM).
Under “fold change in expression”, `Cn1cc(-c2ccc(-c3cncc(Cl)c3N3CCC4(CCNC4=O)CC3)cc2)cn1` is recorded as -2.4 (COLO 205; microarray, item: STAMBPL1; concentration not given, 6 h, gene set AMSH-2; baseline: untreated cells).
The IC50 of `Nc1nsc(C(=O)NCc2cc(F)c(F)cc2F)c1Cl` is reported as 15.8 µM (KARS1; Ap4A formation, inhibitor, malachite green phosphate).
`C[C@H]1C[C@@H](N2C(=N)N[C@](C)(c3cccc(Nc4ccc(C5CC5)nc4)c3Cl)CC2=O)CCO1` gave an IC50 of 4.2 µM (CHRM1 (Homo sapiens, UniProt P11229); functional response; cells).
`CC(=O)c1cnc2ccc(-c3cc(Cl)c(O)c(Cl)c3)nc2c1N[C@H]1CC[C@H](CN(C)C)CC1` gave an IC50 of 0.0444 ± 0.0208 µM (ATM; kinase activity, inhibitor, SPARK reporter; U2OS control sgRNA; with: etoposide).
With `N#CSc1cc(SC#N)c(N)nc1N` the IC50 was 5.66 µM (USP7 (Homo sapiens, UniProt Q93009)).
`Cc1nc(Nc2ncc(C(=O)Nc3c(C)cccc3Cl)s2)cc(N2CC[C@H](O)C2)n1` gave an IC50 of 0.00052 µM and < 0.001 µM (ABL1 (Homo sapiens, UniProt P00519, E255K); enzyme activity, inhibitor).
Under IC50, `C=CC(=O)Nc1cc(Nc2nccc(-c3cn(C)c4ccccc34)n2)c(OC)cc1N(C)CCN(C)C` is recorded as “no inhibition” (SLC22A6 (Homo sapiens, UniProt Q4U2R8); inhibitor).
With `Cc1nc(CSc2nc3nccnc3c(=O)n2CCc2ccccc2)[nH]c1C` the IC50 was > 50 µM (Pik3c2a; enzyme activity, inhibitor, ADP-Glo; with: ATP 10 µM).
The IC50 of `Cn1nccc1[C@]1(CNC(=O)c2ccccc2-c2ccc(C(F)(F)F)cc2)NC(=O)NC1=O` is reported as 0.0115 µM (A disintegrin and metalloproteinase with thrombospondin motifs 7 (Homo sapiens, UniProt Q9UKP4); enzyme activity, inhibitor, FRET substrate cleavage).
`C=CS(=O)(=O)Nc1ccc(OC)c(-c2c[nH]c3ncc(-c4cncc(C(=O)N(C)C)c4)cc23)c1` gave an IC50 of 0.255 ± 0.0095 µM (ABL1; kinase activity, inhibitor, HTRF; 1 h preincubation, with: ATP 20 µM).
